Published values from different studies.
Parts stem from different laboratories: compare values within a part only.

Block 1
Target: Histone acetyltransferase KAT6A, winged helix 2, GST fusion (KAT6A, Homo sapiens, UniProt Q92794, residues 85-181)
Technique: protein binding microarray
Molecule type: double-stranded DNA, one strand shown
Sample: in vitro
Tested at: not given
Setting: 8-mer, flanks averaged, mean of 2 arrays, mostly near background
Baseline: not given
Direction: higher = stronger binding
Residues (chain): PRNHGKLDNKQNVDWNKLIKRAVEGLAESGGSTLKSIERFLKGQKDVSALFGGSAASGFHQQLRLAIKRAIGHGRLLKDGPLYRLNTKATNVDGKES
| Sequence | E-score |
| --- | --- |
| GCGACACA | -0.0576 |
| CGCCTCTC | -0.124 |
| AACCGAGA | 0.0218 |
| AATTTAAA | 0.101 |
| GCTGTGCA | 0.0443 |
| GAGCGCAA | 0.0157 |
| ACGCCACG | -0.021 |
| CCTAAAAA | 0.131 |
| CCGATCCA | -0.089 |
| CACGATAA | 0.0998 |
| AGTATCGG | -0.0508 |
| ATTTAGCC | 0.0271 |
| GAGGTGGA | -0.134 |
| GCAGAAGA | 0.0443 |
| CGGCAACC | 0.129 |
| CCTTTACG | -0.135 |
| ATGAGATA | -0.0177 |
| ATTGTTCG | 0.3 |
| ATATTCAT | -0.0277 |
| TAACTCCA | -0.0154 |
| AAACCATC | 0.0426 |

Block 2
Target: TAR DNA-binding protein 43, full length, His tag (TARDBP, Homo sapiens, UniProt Q13148, residues 1-414)
Technique: RNA Bind-n-Seq
Molecule type: RNA
Sample: in vitro
Tested at: 20 nM
Setting: 6-mer, flanks averaged, single round
Added: 150 mM LiCl
Baseline: input library
Direction: higher = stronger binding
| Sequence | 6-mer enrichment (R) |
| --- | --- |
| GUAAAG | 0.948 |
| GUGGUA | 1.3 |
| CUCUGC | 0.878 |
| CCUUGC | 1.1 |
| GACAAA | 0.871 |
| UGUAUC | 0.959 |
| GAUCAG | 0.885 |
| AUAUCG | 0.856 |
| UGCGAC | 0.921 |
| CGCGCC | 0.991 |
| CAAGGU | 0.897 |
| CCUCCG | 0.953 |
| AUUGCU | 0.926 |
| GGUACC | 0.92 |
| UGACUU | 0.902 |
| CAACCA | 0.856 |
| AUACCA | 0.854 |
| CCUCGA | 0.853 |
| CCCUAU | 1.08 |
| AGCGAA | 0.9 |
| AUACUA | 0.85 |

Block 3
Target: Interferon regulatory factor 7, full length, phosphomimetic (IRF7, Homo sapiens, UniProt Q92985, residues 1-503, S101K/S471D/S472D/S475D/S476D/S477D/S483D/S484D/S487D)
Technique: protein-binding microarray
Molecule type: double-stranded DNA, one strand shown
Sample: in vitro
Tested at: 250 nM
Setting: 60-bp whole probe
Added: salmon DNA 0.4 mg/ml
Baseline: random background probes
Direction: higher = stronger binding
Constant ends, left off below: GCCTAGCAC … GTCTTGATTCGCTTGACGCTGCTG
Construct (chain): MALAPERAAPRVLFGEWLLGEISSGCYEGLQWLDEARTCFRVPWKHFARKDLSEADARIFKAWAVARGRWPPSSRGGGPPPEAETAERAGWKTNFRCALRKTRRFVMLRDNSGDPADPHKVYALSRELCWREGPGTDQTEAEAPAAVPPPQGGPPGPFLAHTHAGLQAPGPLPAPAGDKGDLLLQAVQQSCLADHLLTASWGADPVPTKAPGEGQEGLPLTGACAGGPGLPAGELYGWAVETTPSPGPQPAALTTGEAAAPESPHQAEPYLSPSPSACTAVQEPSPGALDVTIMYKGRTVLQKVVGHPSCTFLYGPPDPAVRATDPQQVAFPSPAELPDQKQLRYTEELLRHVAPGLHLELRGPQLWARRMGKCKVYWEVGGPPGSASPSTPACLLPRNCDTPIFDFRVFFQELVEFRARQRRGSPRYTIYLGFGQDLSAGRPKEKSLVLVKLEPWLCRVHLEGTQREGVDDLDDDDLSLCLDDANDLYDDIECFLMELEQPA
| Sequence | log fluorescence [z-score] |
| --- | --- |
| TTAGGTTTCCTTATCCTTTAGTGCTAG | 2.97 |
| TTAGGTTACGGTATCGGTTAGTGCTAG | 1.83 |
| TCACCTTTTGCTTTACTACTGTGCTAG | 0.974 |
| GACGATTTCGGTTCCGAGACGTGCTAG | 2.53 |
| GACGAACTCGGGTATCGAGACGTGCTA | -0.216 |
| TTAGGTTTCTTTCTCCTTTAGTGCTAG | 2.81 |
| GACGGTCGCCTTTTCCTGACGTGCTAG | 0.198 |
| GACTGACTGCTACTGCTGACGTGCTAG | -0.678 |
| TCATGTTTGTCACTCTCACTGTGCTAG | 0.609 |
| TTAGATTTCAGTTTTGATTAGTGCTAG | 1.62 |
| GACGTACTGGACTATCGGGACGTGCTA | -0.364 |
| TTCGATATCGGGTATCGATTAGTGCTA | 1.11 |
| TTAGAACTGAGCATCGATTAGTGCTAG | -0.272 |
| TGATTGGTTGAACATGAACTGTGCTAG | 0.114 |
| ATAGGTTTCGACTTTCGGTTAGTGCTA | 11.4 |
| GACGGACTGCTTATACTGACGTGCTAG | -0.606 |
| GACGATATCGGGACTCGAGACGTGCTA | 0.151 |
| TCATGTTTCTCAACCAGACTGTGCTAG | 1.2 |
| GACGATCTCAGTGTCGAGACGTGCTAG | -0.316 |
| GTGCTTCACAGAGGCGGCTGGTGCTAG | 0.13 |
| TCATATGTAATCATTCACACTGTGCTA | 0.44 |
| AGATATCTGCACTCTCATGTGTGCTAG | -0.327 |
| GACGGTATAGACACTGGGGACGTGCTA | -0.412 |
| CCTCAGCTCCCTTTCTCTCTGTGCTAG | -0.369 |
| TCACTTCTTGAACTCTTACTGTGCTAG | 0.847 |

Block 4
Target: RNA binding protein fox-1 homolog 2, RRM domain, GST-SBP tag (RBFOX2, Homo sapiens, UniProt O43251-10, residues 100-194)
Technique: RNA Bind-n-Seq
Molecule type: RNA
Sample: in vitro
Tested at: 365 nM
Setting: natural RNA segment, single round, ends assumed
Baseline: no-protein control
Direction: higher = stronger binding
Constant ends, left off below: GGGAGUUCUACAGUCCGACGAUC … UGGAAUUCUCGGGUGCCAA
Target sequence (chain): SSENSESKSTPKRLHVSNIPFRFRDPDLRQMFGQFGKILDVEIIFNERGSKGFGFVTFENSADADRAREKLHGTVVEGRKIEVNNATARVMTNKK
| Sequence | RBNS enrichment (R) |
| --- | --- |
| CAGAUUAACUUGUGAGAAUCAGGAAAAUUCCUUCAACUGCAUUGCAUCCUCUUGGACCAGGGCUAGAAUGGGGAUUUCAGGUUUCUAUGAGCCUCCCCAUUACCCCUAAA | 0.494 |
| GGGCCUGUGCCGUGAAUUGAAUGGAACACUACUUUGAGGCCCUUGGAGAGUGACAGCAGCUAUAGGGUGGACUCAGGAGCUGUCAGUCUUAACAGCUGAGCCUUGGACCC | 0.821 |
| CCAGAAAGUGUUAUAUAUUUAUUUCUGUCGGAACAGUGUUAUGCUACAAGACUUCAUAAUGGUUUUGUGUGCUCUCGAGAGAGUACCUGCAGACUAGUUUUGGAUACAUU | 0.473 |
| UUGCCAGUCCUUGGAAGAAGAGUUCAUCUGGGUCUGAUUGACUGUAGAGAUUUGACACGUUCAUAAAGCUGCUUCCUGUCUGUCUUAGGUCUAUAUCAUAGACCUUGACU | 0.282 |
| ACACUUCCCACUGCCAAGAUUUUGUAUUGCCAUCAGGUGCCAAAUAAAUGUUGAUACUUAUUACUGAUUUUGUGCCUGGUGUUUUUGUGGACACUCAAUCUUCGGAAGCU | 0.327 |
| UAGACAAGAUAAAUUUUGCCUCCCCAUGAGAUUUAUAGUGCUGAAGCCCUCUGUCACUUGACACCCUUCUAGCCUUGUUGGAAGGGUUUUCAGGGAGAUGGGGGCACUAU | 0.606 |
| GGAAGAUACAGGAGUCUGCCACCUGUCAUAGAAGGGUGCUGCCAACUUGAUGCUCUACCUGCCACCAACCACCAGGACUGAAGGAAGGAAACAGUACUGAGGGCAAAGUU | 0.664 |
| GUCCAAAAAGUCACUGAACUCAUACUUCAGUACAUAUACAUGUAUAAGGCACACUGUAGUGCUUAAUAUGUGUAAGGACUUCCUCUUUAAAUUUGGUACCAGUAACUUAG | 0.473 |
| UACUUAAAUACACACUGCGAAGAGUGAAAAGCUUGGAAAAGCAGAGUUGGGAGGACCCCGAGGAAAGGCAUUUGGGGCUGUGUAGAGAGGCUUGGACUGUGUGAGAACUG | 0.977 |
| GCAACACAGCGCAAUCUCGUCUCUACUAAAAAAAAAAAAAAAAAAAAAUUAGCUGGGCAUGAUGGCAUGCUCCUGUGGUCCCAGCUACUUGGGAGGCUGAGGCAGGAGGA | 3.86 |
| CUUUGCAAUAUUUAAGAACCUAAUGCUGUUUAAUUUUGGUACAGCUUCCACAUUGCAUGUUCACUUUAGUAUUUGCAAUUUGAUAUAUUUCAUGGUGGCAAAAUAUUAGC | 3.09 |
| GAAUAUGAAGGAUAGCUGAGCUGUAGCCUCCAGAGUGGGGCAUGCCUAGGCAUAUGGCUGGCUUGGAGACUACUGAUGCUUUUCCCUGAGUUUGUUAUUGGCACUGAAGU | 0.736 |

Block 5
Target: RING finger protein unkempt homolog, zinc fingers 1-6, GST-SBP tag (UNK, Homo sapiens, UniProt Q9C0B0, residues 30-357)
Sequence of UniProt Q9C0B0 (30-357, looked up): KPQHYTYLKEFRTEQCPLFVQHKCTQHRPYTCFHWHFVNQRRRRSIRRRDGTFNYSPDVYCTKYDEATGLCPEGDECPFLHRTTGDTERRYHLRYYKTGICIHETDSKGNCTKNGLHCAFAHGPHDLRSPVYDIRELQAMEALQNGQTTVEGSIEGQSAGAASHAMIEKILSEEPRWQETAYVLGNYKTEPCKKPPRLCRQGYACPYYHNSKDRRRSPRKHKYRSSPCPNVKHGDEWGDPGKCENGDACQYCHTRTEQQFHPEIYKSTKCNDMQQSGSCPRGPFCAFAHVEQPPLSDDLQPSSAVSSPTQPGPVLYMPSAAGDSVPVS
Technique: RNA Bind-n-Seq
Molecule type: RNA
Sample: in vitro
Tested at: not given
Setting: RNA with constant flanks, human-mouse chimeric sites, ends assumed
Baseline: input RNA pool
Direction: higher = stronger binding
Constant ends, left off below: GGGAGUUCUACAGUCCGACGAUC … CAACAGAGGAUUGAGCAUCA
| Sequence | bound/input enrichment [ratio] |
| --- | --- |
| UUGGAAGGACCAGAGCCCAGUCAGCUCAAACCAUUAGUCAUACAGGCUAUGCCCACCCUAAUAGAAUUAAUGAAAGACCCCAGUGUAGUUGUUCGAGACACAACAGCGUGGACUGUGGGC | 3.28 |
| AGAUUCCCUCUCUUAAAACCUCCUCCGAAGUUGGAGUCUCUUACAGAUGCCUCAUCCCCUGUUAGCGUUUUAGUUUGGACCACCCAGCCUUGGACAAUUCCCGCCAACCAGGCAAUUUGC | 1.18 |
| AAAGAGAAACUAAAGCAACUAAUAGAGAAGAGGAUUGGCAAAGAGAAAUUUCAUAGAAAACUAGGAUUUAUUAGCAAAACAUGAGUUUAUUCCAGAGCGUCUCAGAAACCCCAGCCAAAC | 13.3 |
| CCCCACAACCAUUUGCAGGUCUGGAACUGCACUCUCUUUUUUAAAAAACAUGUAUACAUUUUAGGGCUGUAGAUUUACUUUCCUAUUUUUGUUUUUCAUUGCUGACUUUUGAGCACAGAA | 1.69 |
| AUCCAGUACUCGAAUCACAAAGAACUAAAGACAGAUAAUACAUUAAACCAACGUGCUCAAGUAGUUCUUCAAGCUGUGACAGCGGUCCAGACAGCAAAUACUCCUCUUAGUGGCACCACA | 0.37 |
| GGACAUCUGUCAAAUUGUUAUGUUCCUGUGAAACAAGUGAACACUCUGAUACACUUCAUUUAGUUGUACAUCUGUAUGAUAGAGAAAUGUAAAUAUGUUAAUCCAAGAUGAAUUCAACUU | 0.308 |
| AAAGAACCUCUCUCUGAUGAAGAUGAGGAAGACAAUGAUGAUGUUGAACCUAUUACUGAAUUUAGAUUUGUGCCCAGUGAUAAGUCAGCAUUGGAGGCGAUGUUCACAGCAAUGUGUGAG | 0.946 |
| CGCUGGCCCAAGCUGAUGGACUCUGAUCUUGAUCUCUAAGGUAUUAUGUGUGCCUUCUCUUAGUCCCUGUUUUCGGGAUGUUAUGAAUCUCAGUACUGUGGUUUGAAAGCACCAGCUUUG | 0.171 |
| GGAAGUACAAUGAUGGAGAUUGAUGGUGACAAAGGCAAACAAGGCGGGCCCACCUACUACAUAGACACCAAUGCCCUCCGCGUGCCCAGGGAGAACAUGGAGGCCAUCUCACCACUCAAG | 0.241 |
| UACAUUUUAUUGUUGAGUUUCAUUUUCUUGUAUGUUUGUAGUGUCUGCUUGCCUGUGACUUCUGGUAAAAUAAAAUAAGCCUUUGAAAAUAUUUUAGCAUGGUAUUUAACAUUUUCUAAA | 1.75 |
| AUGGUUGUGUCUCUUGAGAUCUAAAAAAAACAUGAUUUUUCCUGGCACAUAUUCCAAAGCAAAGACUUUGUUGCCUGCUGCUUAUUGUCUAAUUUACAGGGAUAUUUAAUUUUGUCAGGU | 0.214 |

Some of these lines once more (block 3):
| Sequence | log fluorescence [z-score] |
| --- | --- |
| TCATGTTTGTCACTCTCACTGTGCTAG | 0.609 |
| GACGAACTCGGGTATCGAGACGTGCTA | -0.216 |
| TTAGAACTGAGCATCGATTAGTGCTAG | -0.272 |
| TGATTGGTTGAACATGAACTGTGCTAG | 0.114 |
| GACGATCTCAGTGTCGAGACGTGCTAG | -0.316 |
| TCACCTTTTGCTTTACTACTGTGCTAG | 0.974 |
| TCACTTCTTGAACTCTTACTGTGCTAG | 0.847 |
| TTAGGTTACGGTATCGGTTAGTGCTAG | 1.83 |
| GACGGTATAGACACTGGGGACGTGCTA | -0.412 |
| TCATATGTAATCATTCACACTGTGCTA | 0.44 |
| GACGATTTCGGTTCCGAGACGTGCTAG | 2.53 |
| TTAGATTTCAGTTTTGATTAGTGCTAG | 1.62 |
